Assay results gathered from unrelated publications.
Lines come from different studies, so protocols differ. Numbers after ± are the reported error.

| SMILES | assay | test system | conditions | quantity | value |
| --- | --- | --- | --- | --- | --- |
| CO[C@H]1C[C@@H]2CC[C@@H](C)[C@@](O)(O2)C(=O)C(=O)N2CCCC[C@H]2C(=O)O[C@H]([C@H](C)C[C@@H]2CC[C@@H](OC(=O)NCCOCCOCCOCCOCCOCCOCCOCCOCCC(=O)N3CCc4cc(Cn5nc(-c6ccc7oc(N)nc7c6)c6c(N)ncnc65)ccc4C3)[C@H](OC)C2)C[C@@H](O)[C@H](C)/C=C(\C)[C@@H](O)[C@@H](OC)C(=O)[C@H](C)C[C@H](C)/C=C/C=C/C=C/1C | phase 1 dose escalation, refers to: decreased appetite | advanced solid tumour patients | intravenous, 16 mg weekly, any grade | TRAE incidence | 25% |
| CCS(=O)(=O)Nc1ccc(Oc2ccc(F)cc2F)c(-c2cn(C)c(=O)c3[nH]ccc23)c1 | pulmonary alveolar hemorrhage, discontinuation | human, relapsed/refractory AML | oral, dose not given | treatment-emergent adverse events | 0% |
| CC(C)C(=O)OC[C@H]1O[C@@H](n2ccc(NO)nc2=O)[C@H](O)[C@@H]1O |  | rat placenta dialysate | 250 ng/mL, 6 h, 10 °C, high QC concentration, with: NHC 1000 ng/mL | autosampler stability | 103 ± 1.27% |
| O=C(Nc1ccccc1)C1CCN(C(=O)Oc2cccnc2)CC1 | adverse event reporting | healthy women | oral, 60 mg, 7 days | subjects with nervous system disorders | 71.4% |
| CNC(=O)c1ccc(-c2cnc3ncc(Cc4ccc5ncccc5c4)n3n2)cc1F |  | patients with advanced HCC | oral, dose not given, grade 3/4, all patients | drug-related blood creatinine increase | 0 patients |
| COc1cc2c(Oc3ccc4[nH]c(C)cc4c3F)ccnc2cc1OCC1(N)CC1 |  | paediatric recurrent refractory sarcoma | 10 mg | grade 1 or 2 Diarrhoea | 50% |
| O.O.O.O.O.O.[Cl-].[Cl-].[Co+2] |  | rat male, urine | oral, 10 mg/kg single, day 3 | cobalt in urine | 239 µg/L |
| CC(C)(O)c1cc(Nc2cc(Oc3cn(C4CC4)nc3C3CCOCC3)ccn2)ccn1 | refers to: Cough | patients with advanced cancer | oral, dose not given | treatment-emergent adverse events | 0% |
| COc1ccnc(C(=O)N[C@H]2COC(=O)[C@H](Cc3ccccc3)[C@@H](OC(=O)C(C)C)[C@H](C)OC2=O)c1OCOC(=O)C(C)C |  | rat | oral, 90 day, highest dose tested | NOAEL | 732 mg/kg/day |
| C[C@@H]1OC(=O)NN=C1c1ccc(-c2ccc(F)cc2)c(C(F)(F)F)c1 | phase I trial, refers to: Cough worst grade 1 | human patients | dose not given, all dose groups | patients with adverse event | 20% |
| C[C@@H]1NC(=O)[C@H](CCCCNC(=O)CO/N=C/C(=O)NCCCC[C@@H]2NC(=O)[C@@H](Cc3ccccc3)NC(=O)[C@H](CC(=O)O)NC(=O)CNC(=O)[C@H](CCCNC(=N)N)NC2=O)NC(=O)CNC(=O)[C@@H]2CCCN2C(=O)[C@H](CCCCNC(=O)CO/N=C/C(=O)NCCCC[C@@H]2NC(=O)[C@@H](Cc3ccccc3)NC(=O)[C@H](CC(=O)O)NC(=O)CNC(=O)[C@H](CCCNC(=N)N)NC2=O)NC(=O)[C@H](CCCCNC(=O)CCNC(=O)CCNC(=O)CCNC(=O)[C@H](CCCCN)NC(=O)[C@H](Cc2ccccc2)NC(=O)CNC(=O)CN2CCCNCCNCCCNCC2)NC(=O)[C@H](CCCCNC(=O)CO/N=C/C(=O)NCCCC[C@@H]2NC(=O)[C@@H](Cc3ccccc3)NC(=O)[C@H](CC(=O)O)NC(=O)CNC(=O)[C@H](CCCNC(=N)N)NC2=O)NC(=O)CNC(=O)[C@@H]2CCCN2C(=O)[C@H](CCCCNC(=O)CO/N=C/C(=O)NCCCC[C@@H]2NC(=O)[C@@H](Cc3ccccc3)NC(=O)[C@H](CC(=O)O)NC(=O)CNC(=O)[C@H](CCCNC(=N)N)NC2=O)NC1=O [copper-64 labelled] |  | normal mice, intestine | intravenous, 0.74 MBq, 24 h post-injection | tissue uptake | 0.93 ± 0.07 %ID/g |
| COc1cccc([C@]2(C)CCN(C[C@@H](NC(=O)[C@H]3Cc4ccc(O)cc4CN3)C(C)C)C[C@@H]2C)c1 |  | rat, plasma | intraperitoneal, 5 mg/kg | AUCtotal | 816 ng·h/mL |
| O=S(=O)(Nc1ccccc1)c1ccc(NC(=S)Nc2ccccc2)cc1 | refers to: Ca | male mouse, blood | oral, 20 mg/kg daily, 14 days | blood chemistry level | 9.55 mg/dL |
| CC(=O)c1c(C)c2cnc(Nc3ccc(C4CCN(CCS(C)(=O)=O)CC4)cn3)nc2n(C2CCCC2)c1=O |  | human, plasma | oral, 50 mg twice daily, day 21, multiple doses, with: letrozole | Cmax | 114 ng/mL |
| NCCCC[C@@H]1NC(=O)[C@@H](Cc2c[nH]c3ccccc23)NC(=O)[C@H](c2ccccc2)NC(=O)[C@@H]2C[C@@H](OC(=O)NCCN)CN2C(=O)[C@H](Cc2ccccc2)NC(=O)[C@H](Cc2ccc(OCc3ccccc3)cc2)NC1=O |  | healthy volunteers, female | 1950 µg twice daily, 2.0 h, post hoc | placebo-corrected QTcF change | 10.9 ms |
| CCc1ccc(CC/C=C/c2ccc3c(c2)C(=O)CC3)cc1 |  | Sprague-Dawley rat, male | oral, 30 mg/kg/day, 14 days | GGT serum activity | 0.67 U/L |
| CC(C)[C@@H]1NC(=O)CNC(=O)[C@H](CC(N)=O)NC(=O)[C@H](CCCNC(=N)N)NC(=O)[C@H](Cc2ccc(O)cc2)NC(=O)[C@H](C(C)C)NC(=O)[C@@H](NC(=O)[C@@H](NC(=O)[C@H](CC(N)=O)NC(=O)[C@H](Cc2c[nH]c3ccccc23)NC(=O)[C@H](C)NC(=O)[C@H](Cc2ccccc2)NC(=O)CN)C(C)C)CSSC[C@@H](C(=O)N[C@@H](Cc2cnc[nH]2)C(=O)N[C@@H](CCCNC(=N)N)C(=O)N[C@@H](CCCNC(=N)N)C(=O)N[C@@H](C)C(=O)N[C@@H](CC(N)=O)C(N)=O)NC(=O)[C@H](C(C)C)NC(=O)[C@H](CCCNC(=N)N)NC1=O |  | ICR mouse, blood | intramammary, 10 mg/kg, day 5, 3 d dosing | ALT | 51.8 ± 1.84 IU/L |
| C[C@@H](NC(=O)N1C(=O)[C@H](Cc2ccnc(N)c2)[C@H]1C(=O)O)C1CCCCC1 |  | healthy adult Chinese volunteers | continuous intravenous infusion, 1.0 mg/kg/h, 5-day infusion, CTCAE 5.0 grading | incidence of abnormal liver function | 0% |
| CCCSc1ccc2nc(NC(=O)OC)[nH]c2c1 |  | mouse, blood | oral, 50 mg/kg, tolerability, mean | mean corpuscular haemoglobin | 17.2 pg |
| Cc1cn([C@H]2O[C@@H](CO[P@@](=O)(N[C@@H](C)C(=O)OC(C)C)Oc3ccccc3)[C@H](O)[C@H]2F)c(=O)[nH]c1=O | refers to: grade 1/2 | human | 50 mg | patients with ALT/AST elevation | 0% |
| CCC[C@@](N)(CO)CCc1ccc(OCCCCCC(C)C)cc1 |  | dog, male hounds, plasma | oral capsule, 20 mg/kg, geometric mean | AUC(0-inf) | 22.8 µM·h |
| C[C@]1(CO)Cc2ncn(-c3ccc(C#N)c(Cl)c3)c2C(=O)O1 |  | human, plasma | 20 mg, first dose fasted | tmax | 1 h |
| O=C1Nc2cc3[nH]nc(-c4ccncc4)c3cc2CN1Cc1ccccc1 | CTCAE v4.03 | advanced solid tumour patients | intravenous, 6.4 mg/kg | patients with acneiform dermatitis | 0% |
| Cn1cc(-c2nc(N[C@@H]3CCCC[C@@H]3N)c(F)c3c2C(=O)NC3)cn1 | refers to: any bleeding | patients with relapsed or refractory AML | oral, 60 mg twice daily | hemorrhagic adverse events | 63% |
| Cn1ncc(-c2nc(N[C@H]3CC[C@H](N)CC3)ncc2Cl)c1CC1CC1 | refers to: epistaxis grade 3 or higher | human patients phase I | dose not given | adverse event incidence | 10% |
